Assay results from different studies.
Parts stem from different laboratories: compare values within a part only. Substitutions count along the parent as printed.

Sample 1
Target: CCNA1, cyclin fold, Cln2 fusion (human)
Method: yeast growth competition, sequencing
Medium: yeast
Notes: weak parent motif
Relative to: not given
Direction: higher = stronger binding
Parent: SCAPER docking peptide (human); SNARRSLNFGGST; partner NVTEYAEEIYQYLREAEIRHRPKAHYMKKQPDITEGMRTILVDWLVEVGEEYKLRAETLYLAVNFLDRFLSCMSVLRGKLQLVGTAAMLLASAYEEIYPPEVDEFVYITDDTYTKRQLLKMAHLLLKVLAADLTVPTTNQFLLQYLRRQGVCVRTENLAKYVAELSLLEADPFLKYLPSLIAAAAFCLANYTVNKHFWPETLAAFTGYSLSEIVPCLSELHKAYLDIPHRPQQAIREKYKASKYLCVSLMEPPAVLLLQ
Substitution	normalised enrichment score
T13R	0.674
R4K	0.507
N8V	0.308
N8R	0.26
F9Y	0.211
T13F	0.587
L7E	0.33

Sample 2
Target: Interferon regulatory factor 5, full length, phosphomimetic (IRF5, Homo sapiens, UniProt Q13568-2, residues 1-514, K96S/S451D/S453D/S456D/S462D)
Method: protein-binding microarray
Molecule type: double-stranded DNA, one strand shown
Medium: in vitro
Concentration: 250 nM
Notes: 60-bp whole probe
With: salmon DNA 0.4 mg/ml
Relative to: random background probes
Direction: higher = stronger binding
Shared flanks, not repeated: GCCTAGCAC … GTCTTGATTCGCTTGACGCTGCTG
Strand	log fluorescence [z-score]
TTAGGTTTCCTTATCCTCTAGTGCTAG	0.874
TCATTTCTCTATTGCTTACTGTGCTAG	1.88
GACGAACTCGGGACTGGAGACGTGCTA	-0.172
ACTTTTTTCTGATTGAATCTGTGCTAG	1.82
GACGTACTGGGTCTCGGGACGTGCTAG	-0.56
GACGGTACCGGGACTGGGGACGTGCTA	-0.302
GACGGTTTCCTTCTCCGGACGTGCTAG	0.717
TATTATTTGCCTTGCATTTTGTGCTAG	0.574
ATAGATTTCGGGTTTCGATTAGTGCTA	8.67
GACGGACTCGGTTTCGGGACGTGCTAG	2.69
GACGGTCTCAGTTTCGAGACGTGCTAG	4.49

Sample 3
Target: ABI1, truncated, D143A, DHFR fusion (Arabidopsis thaliana)
Method: DHFR PCA, deep sequencing
Medium: yeast
Notes: methotrexate growth selection, single substitutions
With: (+)-ABA 0 µM
Relative to: wild-type fitted maximum
Direction: higher = stronger binding
Parent: PYL1, truncated, DHFR fusion (Arabidopsis thaliana); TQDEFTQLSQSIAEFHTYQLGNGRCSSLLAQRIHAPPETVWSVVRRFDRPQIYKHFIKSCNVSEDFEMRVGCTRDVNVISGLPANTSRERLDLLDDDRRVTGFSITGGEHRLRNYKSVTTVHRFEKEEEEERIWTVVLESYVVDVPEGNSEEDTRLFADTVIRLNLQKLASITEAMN; partner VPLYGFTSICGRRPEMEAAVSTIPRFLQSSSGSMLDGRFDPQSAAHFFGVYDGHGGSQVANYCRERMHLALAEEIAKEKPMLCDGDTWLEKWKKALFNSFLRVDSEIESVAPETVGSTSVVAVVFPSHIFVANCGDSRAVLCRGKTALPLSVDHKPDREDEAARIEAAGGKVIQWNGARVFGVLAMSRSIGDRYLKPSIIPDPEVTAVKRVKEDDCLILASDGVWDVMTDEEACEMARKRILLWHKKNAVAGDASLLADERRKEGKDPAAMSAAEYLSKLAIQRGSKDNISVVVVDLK
Substitution	relative binding score [%]
L169E	-2.51
A30T	9.47
E147Q	10.9
D153R	0.686
A158L	43.2
L112S	-2.86
S117A	3.08
F56G	-0.876
E152R	0.397
L29S	-1.52

Other studies, line by line
Substance	target	test	test system	conditions	how to read	quantity	value
PhoQ, residues 284 288 289 292 302 303 GASLAW	PhoP, residues 12 14 15 18 19 MHTVL (Escherichia coli, UniProt P23836)	Sort-seq, refers to: YFP reporter	E. coli	PhoQ-PhoP variant library, with: 10 µM Mg2+	relative to: high Mg2+ state, higher = stronger signaling	fold induction	10.1

A few entries again (sample 2):
Strand	log fluorescence [z-score]
GACGTACTGGGTCTCGGGACGTGCTAG	-0.56
GACGGTACCGGGACTGGGGACGTGCTA	-0.302
GACGGTTTCCTTCTCCGGACGTGCTAG	0.717
TATTATTTGCCTTGCATTTTGTGCTAG	0.574
